Experimental data of several laboratories.
Each line is one published result; not all experiments were run side by side.
Organism: Staphylococcus aureus

Structure (SMILES) | test | system | conditions | MIC
Oc1c(Br)cc(Br)c2nc3cc(C(F)(F)F)ccc3nc12 | – | 129 MRSA clinical isolate | – | 0.05 µM
CC[C@H](C)[C@H](N)C1=N[C@H](C(=O)N[C@@H](CC(C)C)C(=O)N[C@H](CCC(=O)O)C(=O)N[C@H](C(=O)N[C@H]2CCCCNC(=O)[C@H](CC(N)=O)NC(=O)[C@@H](CC(=O)O)NC(=O)[C@H](Cc3c[nH]cn3)NC(=O)[C@@H](Cc3ccccc3)NC(=O)[C@H]([C@@H](C)CC)NC(=O)[C@@H](CCCN)NC2=O)[C@@H](C)CC)CS1 | – | ATCC 29213 MSSA | LB without zinc | 16 µg/mL
CC[C@H]1OC(=O)[C@H](C)[C@@H](OC(=O)Cc2ccc(N)cc2)[C@H](C)[C@@H](O[C@@H]2O[C@H](C)C[C@H](N(C)C)[C@H]2O)[C@](C)(OC)C[C@@H](C)C(=O)[C@H](C)[C@@H](O)[C@]1(C)O | – | ATCC 43300 MRSA | – | > 128 µg/mL
CC[C@H](C)[C@H](NC(=O)[C@@H](CCCNC(=N)N)NC(=O)[C@H](CCCNC(=N)N)NC(=O)[C@@H]1CCCN1C(=O)[C@@H]1CCCN1C(=O)[C@H](CCCNC(=N)N)NC(=O)[C@@H]1CCCN1C(=O)[C@H](CCCNC(=N)N)NC(=O)[C@@H]1CCCN1C(=O)[C@H](CC(C)C)NC(=O)[C@H](Cc1ccc(O)cc1)NC(=O)[C@@H]1CCCN1C(=O)[C@@H]1CCCN1C(=O)[C@H](CCCNC(=N)N)NC(=O)[C@H](CC(=O)O)NC(=O)[C@@H](N)C(C)C)C(=O)N[C@@H](Cc1ccc(O)cc1)C(=O)N[C@@H](CC(N)=O)C(=O)N[C@H](CCCNC(=N)N)C(N)=O | broth microdilution | DSM 6247 | 18 h, 37 °C, 25% MHB2 | > 128 µg/mL
CC[C@H]1OC(=O)[C@H](C)[C@@H](OC(=O)Cc2ccc(OC(F)(F)F)cc2)[C@H](C)[C@@H](O[C@@H]2O[C@H](C)C[C@H](N(C)C)[C@H]2O)[C@](C)(OC)C[C@@H](C)C(=O)[C@H](C)[C@@H](O)[C@]1(C)O | – | DSM 20231 MSSA | – | 8 µg/mL
CCCCCCCCCCn1cc[n+](CCCCCCCCCCOc2cc(OCCCCCCCCCC[n+]3ccn(CCCCCCCCCC)c3)cc(OCCCCCCCCCC[n+]3ccn(CCCCCCCCCC)c3)c2)c1.[Br-].[Br-].[Br-] | – | HA-MRSA ATCC 33591 | – | 63 µM
O=C(Nc1ccc(Oc2ccccc2)cc1)Nc1ccc(Cl)c(C(F)(F)F)c1 | microbial growth | NCTC8325 | – | 0.5 µM
CC[C@H]1OC(=O)[C@H](C)[C@@H](OC(=O)CC2CCCCC2)[C@H](C)[C@@H](O[C@@H]2O[C@H](C)C[C@H](N(C)C)[C@H]2O)[C@](C)(OC)C[C@@H](C)C(=O)[C@H](C)[C@@H](O)[C@]1(C)O | – | BAA-977 | – | 2 µg/mL
CC(C)C[C@@H]1NC(=O)[C@@H](CC(C)C)NC(=O)[C@H](CCN)NC(=O)[C@@H](NC(=O)[C@H](CCN)NC(=O)[C@@H](N)[C@@H](C)O)CCNC(=O)[C@H]([C@@H](C)O)NC(=O)[C@H](CCN)NC(=O)[C@H](CCN)NC1=O | broth microdilution | MRSA USA300, cation-adjusted Mueller-Hinton broth | 20 to 24 h, 37 °C, 0.002% polysorbate 80 | > 128 µg/mL
CC[C@H]1OC(=O)[C@H](C)[C@@H](OC(=O)Cc2ccc(Cl)cc2)[C@H](C)[C@@H](O[C@@H]2O[C@H](C)C[C@H](N(C)C)[C@H]2O)[C@](C)(OC)C[C@@H](C)C(=O)[C@H](C)[C@@H](O)[C@]1(C)O | – | BAA-977 | – | 4 µg/mL
CCCCCCCCCCCC[N+](C)(C)CCCCOc1cc(OCCCC[N+](C)(C)CCCCCCCCCCCC)cc(OCCCC[N+](C)(C)CCCCCCCCCCCC)c1.[Br-].[Br-].[Br-] | – | SH1000 MSSA | – | 2 µM
N=C(N)NCCC[C@@H]1NC(=O)[C@H](CCCNC(=N)N)NC(=O)[C@@H](CCCNC(=N)N)NC(=O)[C@@H](CCCNC(=N)N)NC(=O)[C@@H](C(c2ccccc2)c2ccccc2)NC(=O)[C@@H](Cc2c[nH]c3ccccc23)NC(=O)[C@@H](C(c2ccccc2)c2ccccc2)NC1=O | – | ATCC 29213, MSSA | – | 4 µg/mL
CC[C@H]1OC(=O)[C@H](C)[C@@H](OC(=O)c2ccc([N+](=O)[O-])cc2)[C@H](C)[C@@H](O[C@@H]2O[C@H](C)C[C@H](N(C)C)[C@H]2O)[C@](C)(OC)C[C@@H](C)C(=O)[C@H](C)[C@@H](O)[C@]1(C)O | – | ATCC 43300 MRSA | – | > 64 µg/mL
COc1cc(C(=O)Nc2ccc(C(=O)O)c(O)c2)ccc1NC(=O)c1ccc(NC(=O)[C@H](Cc2c[nH]nn2)NC(=O)c2ccc(NC(=O)/C(C)=C/c3ccc(O)cc3)cc2)cc1 | broth microdilution | ciprofloxacin-sensitive | – | 4 µg/mL
CCCCCCCCCCCC[N+](C)(C)CCCCCCCCOc1cc(OCCCCCCCC[N+](C)(C)CCCCCCCCCCCC)cc(OCCCCCCCC[N+](C)(C)CCCCCCCCCCCC)c1.[Br-].[Br-].[Br-] | – | HA-MRSA ATCC 33591 | – | 32 µM
CCCCCC(=O)Oc1c(C)c(OC)c2c(c1C)OC(=O)[C@@H](CCCC)[C@]2(O)/C=C/c1ccccc1 (relative stereo) | microbial growth, broth dilution | ATCC25923 | – | 5000 µg/mL
CC[C@H](C)[C@H](N)C(=O)N1CCC[C@H]1C(=O)N[C@@H](Cc1ccccc1)C(=O)N[C@@H](Cc1c[nH]c2ccccc12)C(=O)N[C@@H](CCCNC(=N)N)C(=O)N[C@@H](Cc1c[nH]c2ccccc12)C(=O)N[C@@H](CC(C)C)C(=O)N[C@@H](CC(C)C)C(=O)N[C@@H](CCC(N)=O)C(=O)N[C@@H](CCCNC(=N)N)C(=O)N[C@@H](CC(C)C)C(=O)N1CCC[C@H]1C(=O)NCC(=O)O | broth microdilution | ATCC 29213 | 16 h, 37 °C, cation-adjusted Mueller-Hinton broth | 32 µg/mL

Structure (SMILES) | test | system | conditions | MIC
CCCCCCn1cc[n+](CCCCOc2cc(OCCCC[n+]3ccn(CCCCCC)c3)cc(OCCCC[n+]3ccn(CCCCCC)c3)c2)c1.[Br-].[Br-].[Br-] | – | HA-MRSA ATCC 33591 | – | 8 µM
C/C(=C\c1ccc(O)cc1)C(=O)Nc1ccc(C(=O)N[C@@H](Cc2c[nH]nn2)C(=O)Nc2ccc(C(=O)Nc3ccc(C(=O)Nc4ccc(C(=O)O)c(O)c4)c(O)c3)cc2)cc1 | broth microdilution | ciprofloxacin-sensitive | – | 1 µg/mL
CCCCCCCC[N+](C)(C)CCCCCCOc1cc(OCCCCCC[N+](C)(C)CCCCCCCC)cc(OCCCCCC[N+](C)(C)CCCCCCCC)c1.[Br-].[Br-].[Br-] | – | CA-MRSA USA300-0114 | – | 0.5 µM
CN[C@H](CC(C)C)C(=O)N[C@H]1C(=O)N[C@@H](CC(N)=O)C(=O)N[C@H]2C(=O)N[C@H]3C(=O)N[C@H](C(=O)N[C@H](C(=O)NCc4cn(CCCCC(=O)N[C@H](C(=O)N[C@@H](CCN)C(=O)N[C@H]5CCNC(=O)[C@H]([C@@H](C)O)NC(=O)[C@H](CCN)NC(=O)[C@H](CCN)NC(=O)[C@H](CC(C)C)NC(=O)[C@@H](CC(C)C)NC(=O)[C@H](CCN)NC5=O)[C@@H](C)O)nn4)c4cc(O)cc(O)c4-c4cc3ccc4O)[C@H](O)c3ccc(c(Cl)c3)Oc3cc2cc(c3O[C@@H]2O[C@H](CO)[C@@H](O)[C@H](O)[C@H]2O[C@H]2C[C@](C)(N)[C@H](O)[C@H](C)O2)Oc2ccc(cc2Cl)[C@H]1O | broth microdilution | MSSA ATCC 29213, cation-adjusted Mueller-Hinton broth | 20 to 24 h, 37 °C, 0.002% polysorbate 80 | 0.25 µg/mL
C/C(=C\c1ccc(O)cc1)C(=O)Nc1ccc(C(=O)N[C@@H](Cc2c[nH]nn2)C(=O)Nc2ccc(C(=O)Nc3ccc(C(=O)Nc4ccc(C(=O)O)cc4)cc3)cc2)cc1 | broth microdilution | ciprofloxacin-sensitive | – | 32 µg/mL
CCCCCCCCn1cc[n+](CCCCCCCCCCOc2cc(OCCCCCCCCCC[n+]3ccn(CCCCCCCC)c3)cc(OCCCCCCCCCC[n+]3ccn(CCCCCCCC)c3)c2)c1.[Br-].[Br-].[Br-] | – | SH1000 MSSA | – | 4 µM
CC1C=CC=CC(C)C2C=CC3CC(C)(O)C(Cl)C(C)C3C2C(=O)C(Cl)(Cl)C(=O)C(C)C(=O)O1 (stereo not shown) | – | MRSA clinical isolate | OXA resistant | 0.1 µg/mL
CCCCCCn1cc[n+](CCCCCCCCCCOc2cc(OCCCCCCCCCC[n+]3ccn(CCCCCC)c3)cc(OCCCCCCCCCC[n+]3ccn(CCCCCC)c3)c2)c1.[Br-].[Br-].[Br-] | – | SH1000 MSSA | – | 2 µM
COc1c(C)c(OS(=O)(=O)c2ccccc2)c(C)c(O)c1C(=O)/C=C/c1ccccc1 | microbial growth, broth dilution | ATCC25923 | – | 5000 µg/mL
CCC(CC)c1cc(CCN2CCCN(S(=O)(=O)c3ccc(C)cc3)CC2)nc(-c2ccccn2)n1 | microbial growth, broth dilution | ATCC29213 | – | > 16 µg/mL
COc1cc(C(=O)O)ccc1NC(=O)c1ccc(NC(=O)c2ccc(NC(=O)[C@H](Cc3c[nH]nn3)NC(=O)c3ccc(NC(=O)/C(C)=C/c4ccc(O)cc4)cc3)cc2)cc1O | broth microdilution | ciprofloxacin-resistant | – | 32 µg/mL
CC[C@H]1OC(=O)[C@H](C)[C@@H](OC(=O)Cc2c(F)cccc2F)[C@H](C)[C@@H](O[C@@H]2O[C@H](C)C[C@H](N(C)C)[C@H]2O)[C@](C)(OC)C[C@@H](C)C(=O)[C@H](C)[C@@H](O)[C@]1(C)O | – | ATCC 43300 MRSA | – | > 128 µg/mL
CCCCCCC#Cc1cncc(-c2nnc(SCc3ccc(Cl)cc3)n2C)c1 | microbial growth, broth dilution | ATCC29213 | – | > 64 µg/mL
CCCC/C=C/C(=O)N[C@@H](Cc1cc(F)cc(F)c1)C(=O)N[C@H]1COC(=O)[C@@H]2CCCN2C(=O)[C@H](C)NC(=O)[C@@H]2C[C@@H](C(C)C)CCN2C(=O)[C@@H]2CCCN2C1=O | microbial growth, broth dilution | – | – | 1.16 µg/mL
C=C1CN(C(=N)N)CC2Nc3c(F)cc(Br)cc3C12CCNS(=O)(=O)c1ccc(Cl)cc1.O=C(O)C(F)(F)F (stereo not shown) | – | NRS-100, community-acquired MRSA | – | 2 µg/mL
CCCCCCCC[N+](C)(C)CCCCCCCCOc1cc(OCCCCCCCC[N+](C)(C)CCCCCCCC)cc(OCCCCCCCC[N+](C)(C)CCCCCCCC)c1.[Br-].[Br-].[Br-] | – | SH1000 MSSA | – | 1 µM
CC[C@H]1OC(=O)[C@H](C)[C@@H](OC(=O)Cc2cccc([N+](=O)[O-])c2)[C@H](C)[C@@H](O[C@@H]2O[C@H](C)C[C@H](N(C)C)[C@H]2O)[C@](C)(OC)C[C@@H](C)C(=O)[C@H](C)[C@@H](O)[C@]1(C)O | – | ATCC 43300 MRSA | – | > 64 µg/mL

For quick reference, copied from above:
Structure (SMILES) | test | system | conditions | MIC
COc1cc(C(=O)Nc2ccc(C(=O)O)c(O)c2)ccc1NC(=O)c1ccc(NC(=O)[C@H](Cc2c[nH]nn2)NC(=O)c2ccc(NC(=O)/C(C)=C/c3ccc(O)cc3)cc2)cc1 | broth microdilution | ciprofloxacin-sensitive | – | 4 µg/mL
CCCCCCCCCCCC[N+](C)(C)CCCCCCCCOc1cc(OCCCCCCCC[N+](C)(C)CCCCCCCCCCCC)cc(OCCCCCCCC[N+](C)(C)CCCCCCCCCCCC)c1.[Br-].[Br-].[Br-] | – | HA-MRSA ATCC 33591 | – | 32 µM
CCCCCC(=O)Oc1c(C)c(OC)c2c(c1C)OC(=O)[C@@H](CCCC)[C@]2(O)/C=C/c1ccccc1 (relative stereo) | microbial growth, broth dilution | ATCC25923 | – | 5000 µg/mL
CC[C@H](C)[C@H](N)C(=O)N1CCC[C@H]1C(=O)N[C@@H](Cc1ccccc1)C(=O)N[C@@H](Cc1c[nH]c2ccccc12)C(=O)N[C@@H](CCCNC(=N)N)C(=O)N[C@@H](Cc1c[nH]c2ccccc12)C(=O)N[C@@H](CC(C)C)C(=O)N[C@@H](CC(C)C)C(=O)N[C@@H](CCC(N)=O)C(=O)N[C@@H](CCCNC(=N)N)C(=O)N[C@@H](CC(C)C)C(=O)N1CCC[C@H]1C(=O)NCC(=O)O | broth microdilution | ATCC 29213 | 16 h, 37 °C, cation-adjusted Mueller-Hinton broth | 32 µg/mL
